Assay results collected from several papers.
Compare with care: the assays were run in different laboratories. Several values in a cell are separate wells, animals, samples, runs or records. ± marks the error that the study gave.
Chain of UniProt P08254 (whole entry, looked up): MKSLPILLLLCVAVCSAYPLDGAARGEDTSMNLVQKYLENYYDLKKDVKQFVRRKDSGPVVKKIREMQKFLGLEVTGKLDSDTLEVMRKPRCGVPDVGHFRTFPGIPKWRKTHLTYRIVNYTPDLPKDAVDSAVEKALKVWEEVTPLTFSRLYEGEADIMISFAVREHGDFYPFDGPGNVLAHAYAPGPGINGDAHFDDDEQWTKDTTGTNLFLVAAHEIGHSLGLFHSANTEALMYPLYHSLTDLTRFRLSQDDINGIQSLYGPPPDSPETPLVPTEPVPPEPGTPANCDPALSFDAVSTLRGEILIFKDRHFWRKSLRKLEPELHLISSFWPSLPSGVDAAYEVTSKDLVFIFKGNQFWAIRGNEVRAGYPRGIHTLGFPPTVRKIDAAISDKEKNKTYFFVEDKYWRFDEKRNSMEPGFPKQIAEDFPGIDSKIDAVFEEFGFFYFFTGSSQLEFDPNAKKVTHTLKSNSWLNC
Chain of UniProt P55060 (whole entry, looked up): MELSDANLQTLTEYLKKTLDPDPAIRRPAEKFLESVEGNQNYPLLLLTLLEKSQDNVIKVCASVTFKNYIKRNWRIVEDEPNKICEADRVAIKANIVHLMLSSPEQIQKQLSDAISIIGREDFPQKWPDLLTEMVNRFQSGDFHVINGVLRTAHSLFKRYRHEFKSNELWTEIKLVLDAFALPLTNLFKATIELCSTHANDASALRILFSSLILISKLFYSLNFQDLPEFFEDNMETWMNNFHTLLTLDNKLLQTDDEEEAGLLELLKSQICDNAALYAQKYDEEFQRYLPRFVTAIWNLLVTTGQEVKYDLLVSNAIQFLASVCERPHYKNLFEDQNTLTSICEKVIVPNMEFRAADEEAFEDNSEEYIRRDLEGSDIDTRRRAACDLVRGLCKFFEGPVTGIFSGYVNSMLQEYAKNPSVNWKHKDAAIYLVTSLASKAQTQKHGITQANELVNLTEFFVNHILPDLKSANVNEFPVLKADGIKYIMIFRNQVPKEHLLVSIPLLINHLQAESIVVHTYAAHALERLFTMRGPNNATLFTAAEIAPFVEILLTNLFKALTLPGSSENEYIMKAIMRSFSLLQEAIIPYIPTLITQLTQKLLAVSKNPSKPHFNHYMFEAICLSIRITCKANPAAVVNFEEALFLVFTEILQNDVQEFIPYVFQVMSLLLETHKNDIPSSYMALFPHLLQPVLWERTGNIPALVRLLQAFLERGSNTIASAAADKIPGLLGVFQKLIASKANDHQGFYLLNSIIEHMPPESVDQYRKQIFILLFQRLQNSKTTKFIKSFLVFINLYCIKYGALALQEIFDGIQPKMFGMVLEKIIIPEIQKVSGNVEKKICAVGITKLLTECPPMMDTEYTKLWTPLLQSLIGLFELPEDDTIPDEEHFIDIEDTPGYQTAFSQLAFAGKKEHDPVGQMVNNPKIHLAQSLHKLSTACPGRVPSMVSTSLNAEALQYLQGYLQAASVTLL

SMILES | target or system | assay | system | setting | how to read | measurement | value
COc1cc(Nc2ncc(F)c(Nc3ccc4c(n3)NC(=O)C(C)(C)O4)n2)cc(OC)c1OC | Stromelysin-1 (MMP3, Homo sapiens, UniProt P08254) |  |  | metalloproteinase-3 |  | IC50 | > 10000 nM
COc1ccc(-n2nc(C(C)=O)s/c2=N\N=C(/C)c2ccc(NC(C)=O)cc2)cc1 | MCF7 |  |  | 2.5 µM |  | toxicity | 93% and 65.4%
CN(C)CCCN1c2ccccc2Sc2ccc(Cl)cc21 | del45 myoblasts | fluorescence, refers to: fluorescent transferrin |  | concentration not given, 2 h |  | transferrin uptake | 92.2% and 89.5% and 83.7%
CN1CC[C@]23c4c5ccc(O)c4O[C@H]2[C@@H](O)C=C[C@H]3[C@H]1C5 | CHO cells expressing human MOR, membranes | G-protein activation, agonist |  |  |  | EC50 | 96 nM and 93.6 nM
CCOC(=O)C1(c2ccccc2)CCN(CCC(C#N)(c2ccccc2)c2ccccc2)CC1 | primary rat hippocampal/cortical neuron-glia cultures |  |  | 1 µM, added: 1 µM α-synuclein oligomers |  | reversal of trafficking deficit | 21.1%
CCCCCc1cc(O)c2c(c1)OC(C)(C)[C@@H]1CCC(C)=C[C@@H]21 | human sperm | modified Kremer test |  | 10 µM, 1% methylcellulose, 1 cm | reference: vehicle | sperm penetration | 0.38 ± 0.33 fold
C[C@H]1CN(c2n[nH]c3nc(N[C@H]4CC[C@H](NS(=O)(=O)CCC(F)(F)F)CC4)ncc23)CCO1 | Exportin-2 (Homo sapiens, UniProt P55060) | competitor, Kinobeads competition | human cell extract | 0.8 µM | reference: vehicle | relative abundance | 1.25
O=C1NC(=O)C(C2C3=C(CCCC3=O)Oc3ccc([N+](=O)[O-])cc32)C(=O)N1 (centres unmarked) | 3T3-L1 adipocytes | qPCR, refers to: adiponectin |  | IC20, 14 days | reference: untreated mature adipocytes | mRNA level | increased
COc1ccc(CCN)cc1OC | primary rat hippocampal/cortical neuron-glia cultures |  |  | 1 µM, added: 1 µM α-synuclein oligomers |  | reversal of trafficking deficit | -11.4%
CN1C(=O)C(C2C3=C(CC(C)(C)CC3=O)Oc3c(O)cccc32)C(=O)N(C)C1=O (centres unmarked) | 3T3-L1 adipocytes | qPCR, refers to: IRS-1 |  | IC20, 14 days | reference: untreated mature adipocytes | mRNA level | increased
CC[C@@H](c1cccc(O)c1)[C@@H](C)CN(C)C | AtT20 cells | somatostatin response, membrane potential dye fluorescence |  | 30 µM, 0.08333 h, added: somatostatin 100 nM |  | membrane potential change | 24.2% and 24.5% and 23.9% and 24.9% and 25.1% and 18.6%
